Measured values from different studies.
Protocols differ between the studies behind these lines. Numbers after ± are the reported error.

With `COc1ccc(Nc2nc(Nc3ccc(OCCOCC[18F])cc3)ncc2Br)cc1` the tissue uptake was 1.87 ± 0.28 %ID/g (ICR mice, S180 tumour-bearing, muscle; intravenous, 370 kBq, 5 min).
`N#C[C@@H]1CC(F)(F)CN1C(=O)CNC(=O)c1ccnc2c(NC(=O)[C@@H](N)CCCCNC(=O)CCOCCOCCOCCOCCOCCOCCNC(=O)CN3CCN(CC(=O)[O-])CCN(CC(=O)[O-])CCN(CC(=O)[O-])CC3)cccc12.[177Lu+3]` gave a tissue uptake of 1.48 ± 0.26 %ID/g (mouse, U-87 MG tumour xenograft, kidneys; 48 h).
`O=C(O)CCCOc1ccc([18F])cc1-c1cc(-c2ccccc2C(F)(F)F)n(-c2ccccc2)n1` has a tissue uptake of 0.06 ± 0.03 %ID/g (mouse, urine; intravenous, dose not given, 30 min).
The tissue uptake of `COc1ccc(Nc2nc(Nc3ccc(OCCOCCOCC[18F])cc3)ncc2Br)cc1` is reported as 3.07 ± 0.1 %ID/g (ICR mice, S180 tumour-bearing, bone; intravenous, 370 kBq, 30 min).
Under “log2 fold change”, `COC1CN([C@H]2CC[C@H]([C@@]3(C)Oc4c(Cl)cc(C(=O)NCc5c(SC)cc(C)[nH]c5=O)c(C)c4O3)CC2)C1` is recorded as 2.27 (RNA-seq, measured: DENND2B; human, whole blood; dose not given, 24 h; relative to: pretreatment baseline).
The tissue uptake of `[11CH3]N1CCC(NC(=O)c2cc(-c3c(O)cc(O)cc3Oc3ccc([N+](=O)[O-])cc3)on2)CC1` is reported as 5.3 ± 1.1 %ID (Wistar rat, female, healthy, blood; intravenous, 30 min).
`CCCC[C@H](NC(=O)COCCOCCNC(=O)CN1CCN(CC(=O)O)CCN(CC(=O)O)CC1)C(=O)N[C@H]1CC(=O)NCCCC[C@@H](C(N)=O)NC(=O)[C@H](Cc2c[nH]c3ccccc23)NC(=O)[C@H](CCCNC(=N)N)NC(=O)[C@@H](Cc2ccccc2)NC(=O)[C@H](Cc2c[nH]cn2)NC1=O` [fluorine-18 labelled] gave a tissue uptake of 0.09 ± 0.13 %ID/g (C57 mice, B16/F10 melanoma, spleen; intravenous, 1 h, together with: NDP-MSH 10 µg).
`COc1cccc(OC)c1-c1cc(C(=O)NC2(C(=O)O)C3CC4CC(C3)CC2C4)nn1-c1ccc(C(=O)NCCNC(=O)[C@H](CCCCNC(=O)[C@H](CC(C)C)NC(=O)C2OC2C(=O)O)NC(=O)CN2CCN(CC(=O)[O-])CCN(CC(=O)[O-])CCN(CC(=O)[O-])CC2)cc1C(C)C.[177Lu+3]` (mixture of isomers) has a tissue uptake of 0.12 %ID/g (mouse, HT-29 xenograft, muscle; 24 h post injection).
`Cc1cc(C)n(CCN(CCN)CCCCCCNC(=O)[C@@H](N)Cc2c[nH]cn2)n1.[99Tc+].[C-]#[O+].[C-]#[O+].[C-]#[O+]` has a tissue uptake of 0.26 ± 0.02 %IA/g (BALB/c nude mice, MCF7 xenograft, stomach; intravenous, 4 h).
`Cc1ncsc1-c1ccc(C(C)NC(=O)C2CC(O)CN2C(=O)C(NC(=O)CCCCCCCCCCN2CCCC(Nc3ncc(Cl)c(Nc4ccccc4S(=O)(=O)C(C)C)n3)C2)C(C)(C)C)cc1` (stereo not shown) — result for “log2 fold change”: -1.26 (22Rv1; RNA-seq, measured: METTL23 mRNA; concentration not given; relative to: DMSO).
With `COc1cccc(OC)c1-c1cc(C(=O)NC2(C(=O)O)C3CC4CC(C3)CC2C4)nn1-c1ccc(C(=O)N(C)CCOCCOCCN(C)C(=O)[C@H](CCCCNC(=O)[C@H](CC(C)C)NC(=O)C2OC2C(=O)O)NC(=O)CN2CCN(CC(=O)[O-])CCN(CC(=O)[O-])CCN(CC(=O)[O-])CC2)cc1C(C)C.[177Lu+3]` (mixture of isomers) the tissue uptake was 0.082 %ID/g (mouse HT-29 xenograft, small intestine; 72 h post injection, biodistribution).
`O=C(NCC1OC2CCC=CCCC2O1)c1ccc([18F])nc1` (stereo not shown) has a tissue uptake of 1.7 ± 0.5 %ID/g (healthy female BALB/c nude mice, muscle; intravenous, 7.4 MBq per mouse, 10 min).
With `C=C(NC(=O)c1csc(-c2nc3c(cc2O)-c2nc(cs2)C(=O)NC(C(C)O)C(=O)NC(=C(C)OC)c2nc(cs2)C(=O)NC2c4nc(cs4)C(=O)NC(COC(=O)c4c5c6c(cccc6n4O)COC(=O)C(OC4CC(C)(O)C(N(C)C)C(C)O4)C2OC5)c2nc-3cs2)n1)C(N)=O` (stereo not shown) the AUC(0-inf) was 5020 ng·h/mL (ICR mice, Streptococcus pneumoniae ATCC 49169 infected, immunocompromised, blood; intravenous, 32 mg/kg/day once daily).
With `CNC(=O)C1CCCN(C(=O)C2CC3CCC2N3C(=O)[C@@H]2C[C@@H](O)CN2C(=O)NCc2cccc(Cl)c2F)C1` (mixture of isomers) the 6β-hydroxytestosterone formation was 171 ng/mL (CYP3A4 (human); inhibitor, time-dependent inhibition; 50 µM, preincubated without NADPH, together with: testosterone substrate).
For `N#C[C@@H]1CC(F)(F)CN1C(=O)CNC(=O)c1ccnc2c(NC(=O)CCOCCOCCOCCOCCOCCOCCNC(=O)[C@H](CCCCNC(=O)CN3CCN(CC(=O)[O-])CCN(CC(=O)[O-])CCN(CC(=O)[O-])CC3)NC(=O)CCCc3ccc(I)cc3)cccc12.[177Lu+3]`, the tissue uptake was 0.78 ± 0.46 %ID/g (mouse, U-87 MG tumour xenograft, kidneys; 48 h).
`Nc1ncc(-c2cc(-c3cnn(CC(F)(F)F)c3)ncc2F)nc1C(=O)NC1CNCC(F)C1` (stereo not shown) has a remaining binding of 100% (BLK; KINOMEscan; 1 µM; relative to: DMSO control).

For quick reference, copied from above:
The tissue uptake of `COc1ccc(Nc2nc(Nc3ccc(OCCOCCOCC[18F])cc3)ncc2Br)cc1` is reported as 3.07 ± 0.1 %ID/g (ICR mice, S180 tumour-bearing, bone; intravenous, 370 kBq, 30 min).
Under “log2 fold change”, `COC1CN([C@H]2CC[C@H]([C@@]3(C)Oc4c(Cl)cc(C(=O)NCc5c(SC)cc(C)[nH]c5=O)c(C)c4O3)CC2)C1` is recorded as 2.27 (RNA-seq, measured: DENND2B; human, whole blood; dose not given, 24 h; relative to: pretreatment baseline).
